Results gathered from unrelated publications.
Protocols differ between the studies behind these lines. Several values in a cell are separate wells, animals, samples, runs or records. Numbers after ± are the reported error.
UniProt Q6JQN1, sequence (whole entry, looked up): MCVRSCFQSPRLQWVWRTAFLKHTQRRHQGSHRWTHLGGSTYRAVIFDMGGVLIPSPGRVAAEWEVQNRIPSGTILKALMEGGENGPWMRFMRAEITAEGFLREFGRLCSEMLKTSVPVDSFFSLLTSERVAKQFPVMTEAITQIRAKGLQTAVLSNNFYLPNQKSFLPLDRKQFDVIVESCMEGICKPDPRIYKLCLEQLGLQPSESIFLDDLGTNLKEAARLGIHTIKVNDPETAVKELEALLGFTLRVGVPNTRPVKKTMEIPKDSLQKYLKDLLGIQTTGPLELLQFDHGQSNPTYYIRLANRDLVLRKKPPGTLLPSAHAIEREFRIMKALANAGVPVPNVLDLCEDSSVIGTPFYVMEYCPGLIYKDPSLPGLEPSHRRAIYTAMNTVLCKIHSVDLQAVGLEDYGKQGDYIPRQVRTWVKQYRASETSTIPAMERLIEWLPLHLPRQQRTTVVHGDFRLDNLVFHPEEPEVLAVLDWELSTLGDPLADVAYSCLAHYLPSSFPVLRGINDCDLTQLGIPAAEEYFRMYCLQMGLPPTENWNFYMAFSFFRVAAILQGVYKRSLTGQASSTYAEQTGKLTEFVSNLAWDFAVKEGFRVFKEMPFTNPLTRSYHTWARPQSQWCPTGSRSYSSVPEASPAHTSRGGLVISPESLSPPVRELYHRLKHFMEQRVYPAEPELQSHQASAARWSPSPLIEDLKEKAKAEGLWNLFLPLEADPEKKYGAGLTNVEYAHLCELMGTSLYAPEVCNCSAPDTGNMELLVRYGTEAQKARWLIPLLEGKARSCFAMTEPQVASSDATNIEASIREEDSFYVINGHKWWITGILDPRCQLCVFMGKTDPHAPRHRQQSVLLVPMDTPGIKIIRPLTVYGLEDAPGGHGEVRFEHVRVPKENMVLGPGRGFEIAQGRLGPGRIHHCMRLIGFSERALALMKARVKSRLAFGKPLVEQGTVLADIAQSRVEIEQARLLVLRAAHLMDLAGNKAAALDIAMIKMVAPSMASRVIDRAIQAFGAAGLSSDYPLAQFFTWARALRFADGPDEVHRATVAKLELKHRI
UniProt P35916, sequence (whole entry, looked up): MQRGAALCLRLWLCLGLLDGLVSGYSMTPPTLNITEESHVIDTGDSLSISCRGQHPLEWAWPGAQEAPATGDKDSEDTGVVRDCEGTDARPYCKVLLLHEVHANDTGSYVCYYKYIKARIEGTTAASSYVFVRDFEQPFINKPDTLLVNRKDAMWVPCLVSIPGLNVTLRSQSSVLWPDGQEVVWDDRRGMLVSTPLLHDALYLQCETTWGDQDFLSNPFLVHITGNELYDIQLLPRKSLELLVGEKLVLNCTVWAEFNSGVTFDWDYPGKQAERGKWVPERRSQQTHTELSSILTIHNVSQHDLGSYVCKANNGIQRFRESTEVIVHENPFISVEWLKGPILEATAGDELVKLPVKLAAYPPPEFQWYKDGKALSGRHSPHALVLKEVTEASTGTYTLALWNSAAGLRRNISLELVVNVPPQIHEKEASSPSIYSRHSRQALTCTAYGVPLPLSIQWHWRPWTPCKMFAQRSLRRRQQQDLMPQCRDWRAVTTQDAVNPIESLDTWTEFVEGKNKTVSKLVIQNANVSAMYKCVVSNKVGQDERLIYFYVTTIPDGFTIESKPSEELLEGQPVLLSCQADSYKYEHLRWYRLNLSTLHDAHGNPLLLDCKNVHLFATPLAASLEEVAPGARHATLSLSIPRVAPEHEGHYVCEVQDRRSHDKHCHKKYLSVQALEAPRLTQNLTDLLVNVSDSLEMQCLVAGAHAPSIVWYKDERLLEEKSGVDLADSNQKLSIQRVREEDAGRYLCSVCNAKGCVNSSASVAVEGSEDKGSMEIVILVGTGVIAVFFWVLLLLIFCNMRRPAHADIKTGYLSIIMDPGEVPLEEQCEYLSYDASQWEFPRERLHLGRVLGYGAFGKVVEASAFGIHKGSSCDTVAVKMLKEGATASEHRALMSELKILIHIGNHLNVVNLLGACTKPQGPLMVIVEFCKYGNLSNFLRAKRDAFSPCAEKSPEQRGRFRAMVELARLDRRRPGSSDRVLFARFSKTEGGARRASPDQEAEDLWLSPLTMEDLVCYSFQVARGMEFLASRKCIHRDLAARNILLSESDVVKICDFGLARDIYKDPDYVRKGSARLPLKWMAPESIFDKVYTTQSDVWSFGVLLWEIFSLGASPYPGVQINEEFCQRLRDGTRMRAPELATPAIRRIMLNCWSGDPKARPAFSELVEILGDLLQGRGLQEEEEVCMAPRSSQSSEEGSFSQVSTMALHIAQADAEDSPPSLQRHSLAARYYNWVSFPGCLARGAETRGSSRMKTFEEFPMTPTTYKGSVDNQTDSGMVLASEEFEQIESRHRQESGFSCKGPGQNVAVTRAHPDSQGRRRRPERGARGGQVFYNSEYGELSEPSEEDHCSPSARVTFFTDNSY

| SMILES | target or system | test | system | conditions | scale | measurement | result |
| --- | --- | --- | --- | --- | --- | --- | --- |
| CCCC1CCC(C2CCC(c3ccc(F)c(F)c3)CC2)CC1 (stereo not drawn) | – | – | human mother-newborn pairs, female fetuses, cord serum | – | – | mean serum concentration | 0.27 ng/mL |
| [2H]c1c([2H])c([C@]2([2H])CCCN2C(=O)C(C)(C)Oc2ccc3cn[nH]c3c2)c([2H])c([2H])c1C([2H])([2H])[2H] | Vascular endothelial growth factor receptor 3 (FLT4, Homo sapiens, UniProt P35916) | KINOMEscan | – | 1 µM | relative to: DMSO control | remaining binding | 69% |
| O=C1c2c(O)c(=O)ccn2N([C@@H]2c3ccccc3SCc3c2ccc(F)c3F)[C@@H]2COCCN12 | – | – | BALB/c mice, plasma | oral, 0.5 mg/kg baloxavir marboxil, 8 h | – | plasma concentration | 1.12 ng/mL |
| COc1ccc(C[C@@H]2NC(=O)[C@H]([C@@H](C)O)NC(=O)[C@@H]3[C@@H]4CCN3C(=O)[C@@H]3Cc5cn(c6ccc(F)cc56)CCCCCCN(Cc5ccc(cc5)CCNC(=O)[C@]5(C)CCCN5C2=O)C(=O)CCC(=O)N[C@@H](C)C(=O)N[C@H](CNC(=O)CCCCC[N+](C)(C)C)C(=O)N[C@@H](Cc2cccc(c2)CNC(=O)CO4)C(=O)N3)cc1 | – | measured: Constipation | humans | concentration not given, Study-003 | – | participants with adverse event | 3.2% |
| Cc1ncc(OC[C@@]2(c3cccc(F)c3)C[C@H]2C(=O)Nc2ccc(F)cn2)c(C)n1 | MDCK | – | – | 1 µM, 90 min, pH 7.4 apical, 7.4 basolateral | – | Papp A to B | 34.7 ×10⁻⁶ cm/s and 29.4 ×10⁻⁶ cm/s |
| CC(=O)c1c(C)c2cnc(Nc3ccc(C4CCN(CCS(C)(=O)=O)CC4)cn3)nc2n(C2CCCC2)c1=O | – | – | HR+/HER2- advanced breast cancer patients | oral, dose not given, grade 3/4,, total | – | patients with Hypertriglyceridemia | 2.5% |
| Cc1nc(Nc2ccc(CC(=O)O)cc2)nc(Nc2ccc(F)c(C(F)(F)F)c2)c1C | – | – | mice, chronic ethanol plus binge | intraperitoneal, 0.3 mg/kg daily, ethanol diet 4 weeks, dosed last two | relative to: vehicle | serum creatinine | no effect |
| CC(C)(c1ccccc1)c1cc(-n2nc3ccccc3n2)c(O)c(C(C)(C)c2ccccc2)c1 | – | exposure assessment | human, age 3-6 years | concentration not given, spray sunscreen, 95th percentile | – | daily dermal uptake, percentile | 74.2 ng/kg body weight/day |
| CC(C)C[C@H](NC(=O)[C@H](Cc1ccccc1)NC(=O)[C@H](Cc1ccccc1)NC(=O)Cc1ccc(-c2ccccc2)cc1)C(=O)N[C@@H](CCCCN)C(=O)N[C@@H](CCCNC(=N)N)C(=O)N[C@H](C(=O)N[C@@H](Cc1c[nH]c2ccccc12)C(=O)N[C@@H](CCCCN)C(=O)N[C@@H](CCCNC(=N)N)C(=O)O)C(C)C | – | – | monkey liver microsomes | – | – | intrinsic clearance | 763 mL/min/kg |
| O=C(Nc1ccc(Cl)cc1)Nc1ccc(Cl)c(Cl)c1 | – | ultrafiltration | cow milk whey | 2000 nM nominal in whole milk | – | dose fraction in permeate | 2.62% |
| COc1cc2c(Oc3ccc4[nH]c(C)cc4c3F)ccnc2cc1OCC1(N)CC1 | – | – | paediatric refractory sarcoma patients | 10 mg | – | intestinal obstruction incidence | 0% |
| Nc1ncnc2c1ncn2[C@@H]1O[C@@H]2COP(=O)([S-])O[C@@H]3[C@H](O)[C@@H](COP([O-])(=S)O[C@H]2[C@H]1O)O[C@H]3n1cnc2c(N)ncnc21.[Na+].[Na+] (stereo partly drawn) | – | – | non-tumour-bearing mice, blood | intravenous, 1 mg/kg | – | serum albumin | 30.1 ± 0.87 g/L |
| C[C@H]1CN(c2n[nH]c3nc(N[C@H]4CC[C@H](NS(=O)(=O)CCC(F)(F)F)CC4)ncc23)CCO1 | Acyl-CoA dehydrogenase family member 10 (ACAD10, Homo sapiens, UniProt Q6JQN1) | inhibitor, Kinobeads competition profiling | – | 20 µM | relative to: vehicle | relative abundance | 1.14 |
| CN1CCN(S(=O)(=O)c2cc([N+](=O)[O-])ccc2N(CCOS(C)(=O)=O)CCOS(C)(=O)=O)CC1 | – | – | NSG mice female, plasma | intraperitoneal, 10 mg/kg, 0.75 h | – | concentration | 410 nM |
| CC[C@H](C)[C@@H]1NC(=O)[C@@H]2CCCN2C(=O)[C@H](CC(C)C)NC(=O)[C@H](CC(C)C)NC(=O)CNC(=O)[C@@H](NC(=O)[C@@H](NC(=O)[C@H](CC(=O)O)NC(=O)CNC(=O)[C@@H](NC(=O)[C@H](C)NC(=O)CNC(=O)[C@H](CCCCN)NC(=O)[C@H](CC(C)C)NC(=O)[C@H](CC(C)C)NC(=O)[C@H](CCCCN)NC(=O)CNC(=O)[C@@H](NC(=O)[C@@H](N)CC(C)C)C(C)C)C(C)C)C(C)C)CSSC[C@@H](C(=O)O)NC1=O | – | RNA-seq, measured: novel.227 mRNA | mouse traumatic brain injury, frontal cortex and hippocampus | dose not given | relative to: TBI plus compound vs TBI | log2 fold change | -2.26 |
| C=CC(=O)N1CC[C@H](n2nc(C#Cc3cc(OC)cc(OC)c3)c3c(N)ncnc32)C1 | – | – | human patients | oral, dose not given, QD regimen, adverse drug reaction, added: sevelamer hydrochloride | – | hyperphosphatemia incidence, grade ≥3 | 0% |
| NC(=O)N1c2ccccc2C=Cc2ccccc21 | – | PAMPA | – | 200 µM, 5 h, pH 7.4 | – | membrane retention | 10.2% |
| CC(C)C[C@@H]1NC(=O)[C@H](CC(C)C)NC(=O)[C@H](Cc2c[nH]c3ccccc23)NC(=O)[C@H](CO)NC(=O)[C@H](Cc2c[nH]c3ccccc23)NC(=O)[C@@H]2CCCN2C(=O)[C@H](CC(C)C)NC(=O)[C@H](Cc2c[nH]cn2)NC(=O)[C@@H]2CCCN2C(=O)[C@H](CC(N)=O)NC(=O)[C@H](C)NC(=O)[C@H](Cc2ccc(O)cc2)NC(=O)[C@H](CS)NC(=O)[C@H](CCCCNC(=O)CN2CCN(CC(=O)O)CCN(CC(=O)O)CCN(CC(=O)O)CC2)NC1=O [lutetium-177 labelled] | – | – | Balb/c mouse, female, 4T1 tumour, heart | intravenous, 3.7 MBq, 1 h | – | tissue uptake | 0.1 ± 0.12 %ID |
| Cn1cc(-c2nc(N[C@@H]3CCCC[C@@H]3N)c(F)c3c2C(=O)NC3)cn1 | – | measured: Hematochezia | patients with relapsed or refractory AML | oral, 80 mg twice daily | – | hemorrhagic adverse events | 17% |
| CC[C@H](C)[C@H](NC(=O)[C@H](Cc1ccccc1)NC(=O)[C@H](CCC(=O)O)NC(=O)[C@H](CCCNC(=N)N)NC(=O)[C@H](C)NC(=O)[C@H](C)NC(=O)[C@H](CCC(N)=O)NC(=O)[C@H](CCC(=O)O)NC(=O)[C@H](CCC(=O)O)NC(=O)[C@H](CC(C)C)NC(=O)[C@H](Cc1ccc(O)cc1)NC(=O)[C@H](CO)NC(=O)[C@H](CO)NC(=O)[C@@H](NC(=O)[C@H](CC(=O)O)NC(=O)[C@H](CO)NC(=O)[C@@H](NC(=O)[C@H](Cc1ccccc1)NC(=O)[C@@H](NC(=O)CNC(=O)[C@H](CCC(=O)O)NC(=O)[C@H](C)NC(=O)CCc1c[nH]cn1)[C@@H](C)O)[C@@H](C)O)C(C)C)C(=O)N[C@@H](C)C(=O)N[C@@H](Cc1c[nH]c2ccccc12)C(=O)N[C@@H](CC(C)C)C(=O)N[C@H](C(=O)N[C@@H](CCCNC(=N)N)C(=O)NCC(=O)N[C@@H](CCCNC(=N)N)C(=O)N[C@@H](CCCCNC(=O)COCCOCCNC(=O)COCCOCCNC(=O)CC[C@H](NC(=O)CCCCCCCCCCCCCCCCC(=O)O)C(=O)O)C(=O)NCC(=O)NCC(=O)N[C@@H](CO)C(=O)N[C@@H](CCCCNc1c(NCCCCCN(O)C(=O)CCC(=O)NCCCCCN(O)C(=O)CCC(=O)NCCCCCN(O)C(C)=O)c(=O)c1=O)C(=O)O)C(C)C [zirconium-89 labelled] | – | – | rat, colon | iv, 3 nmol/kg, 24 h, ex vivo | – | tissue uptake | 0.26 %ID/g |
| CC(C)(O)c1cc(Nc2cc(Oc3cn(C4CC4)nc3C3CCOCC3)ccn2)ccn1 | – | Fatigue | patients with advanced cancer, grade 4 glioma expansion | oral, 50 mg twice daily, grade ≥3, 2 weeks on/2 weeks off schedule | – | treatment-related adverse events | 0% |

Repeated from above:
| SMILES | target or system | test | system | conditions | scale | measurement | result |
| --- | --- | --- | --- | --- | --- | --- | --- |
| COc1ccc(C[C@@H]2NC(=O)[C@H]([C@@H](C)O)NC(=O)[C@@H]3[C@@H]4CCN3C(=O)[C@@H]3Cc5cn(c6ccc(F)cc56)CCCCCCN(Cc5ccc(cc5)CCNC(=O)[C@]5(C)CCCN5C2=O)C(=O)CCC(=O)N[C@@H](C)C(=O)N[C@H](CNC(=O)CCCCC[N+](C)(C)C)C(=O)N[C@@H](Cc2cccc(c2)CNC(=O)CO4)C(=O)N3)cc1 | – | measured: Constipation | humans | concentration not given, Study-003 | – | participants with adverse event | 3.2% |
| Cn1cc(-c2nc(N[C@@H]3CCCC[C@@H]3N)c(F)c3c2C(=O)NC3)cn1 | – | measured: Hematochezia | patients with relapsed or refractory AML | oral, 80 mg twice daily | – | hemorrhagic adverse events | 17% |
